# Results of several laboratories.
# Each line is one published result; not all experiments were run side by side. Values joined by “and” are separate records of one study, mostly repeats; a detail may differ. ± marks the error that the study gave.
# BCL2L1: Bcl-2-like protein 1 (BCL2L1, Homo sapiens, UniProt Q07817)
# Chain of UniProt Q07817 (whole entry, looked up): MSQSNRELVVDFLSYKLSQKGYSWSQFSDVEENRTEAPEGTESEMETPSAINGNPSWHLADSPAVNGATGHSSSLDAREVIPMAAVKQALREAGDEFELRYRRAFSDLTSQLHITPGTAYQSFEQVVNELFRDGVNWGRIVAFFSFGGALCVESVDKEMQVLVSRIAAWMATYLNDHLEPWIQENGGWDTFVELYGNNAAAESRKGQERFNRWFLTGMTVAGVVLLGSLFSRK
# LGALS3: Galectin-3 (LGALS3, Homo sapiens, UniProt P17931)
# Chain of UniProt P17931 (whole entry, unmodified, looked up): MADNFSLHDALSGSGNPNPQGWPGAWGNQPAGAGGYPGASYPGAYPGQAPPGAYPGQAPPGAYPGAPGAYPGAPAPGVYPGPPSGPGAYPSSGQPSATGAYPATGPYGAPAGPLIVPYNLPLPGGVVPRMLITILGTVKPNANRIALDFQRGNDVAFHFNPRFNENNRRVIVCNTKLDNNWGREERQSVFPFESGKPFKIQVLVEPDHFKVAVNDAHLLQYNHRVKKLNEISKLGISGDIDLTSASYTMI
# Chain of UniProt O43741 (whole entry, looked up): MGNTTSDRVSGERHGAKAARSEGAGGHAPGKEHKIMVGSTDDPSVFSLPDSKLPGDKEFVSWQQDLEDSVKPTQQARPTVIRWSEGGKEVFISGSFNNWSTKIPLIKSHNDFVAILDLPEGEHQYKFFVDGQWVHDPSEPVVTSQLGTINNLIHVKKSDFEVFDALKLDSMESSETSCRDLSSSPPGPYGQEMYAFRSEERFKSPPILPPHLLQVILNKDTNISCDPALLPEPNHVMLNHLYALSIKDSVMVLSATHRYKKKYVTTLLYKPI
# Chain of UniProt P40337 (whole entry, looked up): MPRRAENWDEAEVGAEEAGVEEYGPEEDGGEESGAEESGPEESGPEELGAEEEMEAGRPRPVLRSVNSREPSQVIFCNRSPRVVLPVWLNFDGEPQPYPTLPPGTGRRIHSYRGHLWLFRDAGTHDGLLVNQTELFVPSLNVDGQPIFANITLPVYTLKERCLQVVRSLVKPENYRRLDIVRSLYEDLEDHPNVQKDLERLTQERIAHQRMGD
# Chain of UniProt P08238 (whole entry, looked up): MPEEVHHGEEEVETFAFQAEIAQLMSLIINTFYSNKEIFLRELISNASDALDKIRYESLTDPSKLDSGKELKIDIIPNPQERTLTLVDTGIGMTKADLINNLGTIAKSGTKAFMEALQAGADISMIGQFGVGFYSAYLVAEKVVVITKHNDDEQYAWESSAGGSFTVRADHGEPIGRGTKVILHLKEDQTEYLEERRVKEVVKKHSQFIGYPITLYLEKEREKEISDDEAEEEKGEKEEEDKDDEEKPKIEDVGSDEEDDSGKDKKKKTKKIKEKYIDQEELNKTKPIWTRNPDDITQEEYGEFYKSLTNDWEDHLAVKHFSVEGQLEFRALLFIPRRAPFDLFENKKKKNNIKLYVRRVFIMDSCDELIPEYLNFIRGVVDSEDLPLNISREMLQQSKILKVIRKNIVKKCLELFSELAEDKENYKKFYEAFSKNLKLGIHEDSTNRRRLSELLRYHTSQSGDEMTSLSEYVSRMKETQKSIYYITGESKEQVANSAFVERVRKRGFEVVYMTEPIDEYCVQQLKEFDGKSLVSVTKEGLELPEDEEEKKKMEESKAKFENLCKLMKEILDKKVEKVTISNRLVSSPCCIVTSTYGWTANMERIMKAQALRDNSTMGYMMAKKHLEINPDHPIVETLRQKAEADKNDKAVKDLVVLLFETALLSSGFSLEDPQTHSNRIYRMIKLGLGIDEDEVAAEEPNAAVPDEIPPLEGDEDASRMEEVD
# Chain of UniProt P10636 (whole entry, looked up): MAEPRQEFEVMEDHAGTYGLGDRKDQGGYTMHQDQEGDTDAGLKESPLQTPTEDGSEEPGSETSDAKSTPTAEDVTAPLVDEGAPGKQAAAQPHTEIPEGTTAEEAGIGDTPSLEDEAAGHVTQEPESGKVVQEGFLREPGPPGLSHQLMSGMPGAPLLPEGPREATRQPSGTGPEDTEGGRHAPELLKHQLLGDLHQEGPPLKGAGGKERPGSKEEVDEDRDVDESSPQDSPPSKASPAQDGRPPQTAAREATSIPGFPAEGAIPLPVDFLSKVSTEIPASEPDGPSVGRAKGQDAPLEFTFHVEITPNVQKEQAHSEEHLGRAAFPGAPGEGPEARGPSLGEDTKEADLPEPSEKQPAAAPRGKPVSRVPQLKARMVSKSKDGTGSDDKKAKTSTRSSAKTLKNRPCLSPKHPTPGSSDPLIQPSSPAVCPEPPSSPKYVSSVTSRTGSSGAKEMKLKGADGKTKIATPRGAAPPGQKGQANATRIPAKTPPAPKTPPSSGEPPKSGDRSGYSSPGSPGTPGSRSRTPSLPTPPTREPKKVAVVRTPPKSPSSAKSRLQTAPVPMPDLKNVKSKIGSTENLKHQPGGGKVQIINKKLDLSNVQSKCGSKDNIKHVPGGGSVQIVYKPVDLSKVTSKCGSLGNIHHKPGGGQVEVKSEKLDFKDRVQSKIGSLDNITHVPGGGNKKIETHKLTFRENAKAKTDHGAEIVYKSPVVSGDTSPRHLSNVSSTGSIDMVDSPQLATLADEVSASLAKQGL
# Chain of UniProt Q9LFP6 (whole entry, looked up): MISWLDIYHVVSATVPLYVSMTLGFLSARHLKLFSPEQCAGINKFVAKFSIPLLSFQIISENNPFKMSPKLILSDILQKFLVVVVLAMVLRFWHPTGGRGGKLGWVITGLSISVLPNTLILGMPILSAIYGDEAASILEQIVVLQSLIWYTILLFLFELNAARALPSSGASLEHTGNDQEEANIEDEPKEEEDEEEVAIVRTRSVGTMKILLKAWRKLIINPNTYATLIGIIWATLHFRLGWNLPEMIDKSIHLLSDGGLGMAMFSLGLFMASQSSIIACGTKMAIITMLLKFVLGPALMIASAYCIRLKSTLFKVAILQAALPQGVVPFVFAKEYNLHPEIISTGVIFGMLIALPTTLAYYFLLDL
# Chain of UniProt P98170 (whole entry, unmodified, looked up): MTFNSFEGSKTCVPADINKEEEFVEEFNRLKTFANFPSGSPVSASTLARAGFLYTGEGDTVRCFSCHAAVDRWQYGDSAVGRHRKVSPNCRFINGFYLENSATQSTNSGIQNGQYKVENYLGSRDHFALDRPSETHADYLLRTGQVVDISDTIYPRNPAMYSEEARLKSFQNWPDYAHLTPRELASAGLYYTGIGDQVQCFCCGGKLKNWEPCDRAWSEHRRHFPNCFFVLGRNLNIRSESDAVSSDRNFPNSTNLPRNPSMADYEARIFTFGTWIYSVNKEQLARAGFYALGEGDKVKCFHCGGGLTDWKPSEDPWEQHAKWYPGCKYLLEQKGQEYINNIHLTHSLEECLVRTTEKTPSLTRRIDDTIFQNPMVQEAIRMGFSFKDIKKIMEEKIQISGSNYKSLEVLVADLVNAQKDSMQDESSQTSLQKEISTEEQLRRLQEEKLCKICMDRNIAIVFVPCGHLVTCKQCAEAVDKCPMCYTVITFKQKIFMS
# Chain of UniProt P56470 (whole entry, looked up): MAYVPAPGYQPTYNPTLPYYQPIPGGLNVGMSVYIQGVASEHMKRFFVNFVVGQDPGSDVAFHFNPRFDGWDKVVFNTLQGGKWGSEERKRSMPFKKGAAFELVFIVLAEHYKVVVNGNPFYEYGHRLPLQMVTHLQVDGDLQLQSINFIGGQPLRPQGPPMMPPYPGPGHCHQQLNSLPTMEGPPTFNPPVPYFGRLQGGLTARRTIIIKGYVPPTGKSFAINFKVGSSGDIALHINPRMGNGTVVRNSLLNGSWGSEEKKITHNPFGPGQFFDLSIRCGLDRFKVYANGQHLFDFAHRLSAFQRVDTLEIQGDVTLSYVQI
# Chain of UniProt O49686 (whole entry, unmodified, looked up): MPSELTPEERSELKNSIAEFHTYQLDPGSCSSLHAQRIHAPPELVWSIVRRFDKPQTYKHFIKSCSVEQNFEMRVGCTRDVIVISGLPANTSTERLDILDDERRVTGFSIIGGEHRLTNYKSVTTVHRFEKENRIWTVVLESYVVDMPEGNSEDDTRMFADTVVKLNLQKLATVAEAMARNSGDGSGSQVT
# Chain of UniProt Q13976 (whole entry, looked up): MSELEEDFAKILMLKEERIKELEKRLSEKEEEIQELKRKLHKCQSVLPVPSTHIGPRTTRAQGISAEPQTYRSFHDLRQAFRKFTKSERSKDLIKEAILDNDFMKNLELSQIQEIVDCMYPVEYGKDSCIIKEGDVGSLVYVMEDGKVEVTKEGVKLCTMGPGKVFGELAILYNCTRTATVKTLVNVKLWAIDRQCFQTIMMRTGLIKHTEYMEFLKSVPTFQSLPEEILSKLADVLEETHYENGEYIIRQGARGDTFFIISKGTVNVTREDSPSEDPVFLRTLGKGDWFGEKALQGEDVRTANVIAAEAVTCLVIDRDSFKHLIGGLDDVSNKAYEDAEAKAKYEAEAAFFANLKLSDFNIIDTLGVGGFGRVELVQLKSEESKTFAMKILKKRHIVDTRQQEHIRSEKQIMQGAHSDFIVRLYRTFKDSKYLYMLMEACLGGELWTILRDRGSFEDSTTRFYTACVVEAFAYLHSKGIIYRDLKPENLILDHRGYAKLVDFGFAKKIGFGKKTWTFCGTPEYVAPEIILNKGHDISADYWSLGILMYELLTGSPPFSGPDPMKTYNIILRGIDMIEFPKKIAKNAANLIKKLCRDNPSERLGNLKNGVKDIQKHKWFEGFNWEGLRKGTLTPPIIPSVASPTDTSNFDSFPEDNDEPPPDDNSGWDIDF
# Chain of UniProt Q9BQB4 (whole entry, looked up): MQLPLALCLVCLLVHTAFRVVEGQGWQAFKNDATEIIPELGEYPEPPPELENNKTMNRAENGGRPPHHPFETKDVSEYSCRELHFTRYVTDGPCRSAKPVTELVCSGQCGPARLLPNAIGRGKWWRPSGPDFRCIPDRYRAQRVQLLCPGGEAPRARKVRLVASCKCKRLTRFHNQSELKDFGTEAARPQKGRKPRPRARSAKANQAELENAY
# Chain of UniProt P62937 (whole entry, looked up): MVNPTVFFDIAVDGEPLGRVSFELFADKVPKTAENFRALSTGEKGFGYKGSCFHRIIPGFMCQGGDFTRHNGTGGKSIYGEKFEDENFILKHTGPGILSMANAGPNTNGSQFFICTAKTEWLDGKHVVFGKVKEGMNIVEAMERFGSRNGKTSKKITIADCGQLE
SMILES,target,test,system,setting,Kd
COc1c(F)c(F)c(C(=O)N[C@H]2[C@@H](O)[C@@H](CO)O[C@@H](O[C@H]3[C@H](O)[C@@H](NC(C)=O)[C@H](OC)O[C@@H]3CO)[C@@H]2O)c(F)c1F,"Galectin-3, carbohydrate recognition domain (LGALS3, Homo sapiens, UniProt P17931)",,,,3.3 ± 0.1 µM
CC[C@H](C)[C@H](NC(=O)[C@H](Cc1c[nH]c2ccccc12)NC(=O)[C@@H](NC(=O)[C@H](CCC(=O)O)NC(=O)[C@@H]1CCCN1C(=O)[C@H](CCCNC(=N)N)NC(C)=O)[C@@H](C)CC)C(=O)N[C@@H](C)C(=O)N[C@@H](CCC(N)=O)C(=O)N[C@@H](CCC(=O)O)C(=O)N[C@@H](CC(C)C)C(=O)N[C@@H](CCCNC(=N)N)C(=O)N[C@@H](CCCNC(=N)N)C(=O)N[C@@H](C)C(=O)NCC(=O)N[C@@H](CCCCN)C(=O)N[C@H](C(=O)N[C@@H](CC(C)C)C(=O)N[C@@H](CC(N)=O)C(=O)N[C@@H](C)C(=O)N[C@@H](Cc1ccc(O)cc1)C(=O)N[C@@H](Cc1ccc(O)cc1)C(=O)N[C@@H](C)C(=O)N[C@@H](CCCNC(=N)N)C(N)=O)C(C)C,"Bcl-2-like protein 2 (BCL2L2, Homo sapiens, UniProt Q92843)","binding, fluorescence polarization",,"pH 7.8, 37 °C",> 1 µM
COc1ccc(/C=C/c2ccc(-c3ccc(C)cn3)nc2)cc1,zinc(II),"binding, fluorescence titration",aqueous HEPES buffer,"pH 7.4, metal-buffered solution",0.04 to 2 µM
NC(=O)c1ccc[n+]([C@@H]2O[C@H](COP(=O)([O-])OP(=O)(O)OC[C@H]3O[C@@H](n4cnc5c(N)ncnc54)[C@H](O)[C@@H]3O)[C@@H](O)[C@H]2O)c1,"kptA (Runella slithyformis, UniProt A0A7U3ZK32)","binding, ITC",,,~31 µM and 31 µM
CC[C@H](C)[C@H](NC(=O)[C@H](CCCNC(=N)N)NC(=O)[C@H](CCCCN)NC(=O)[C@H](CC(C)C)NC(=O)[C@H](CCC(=O)O)NC(=O)[C@H](CCC(N)=O)NC(=O)[C@H](C)NC(=O)[C@@H](NC(=O)[C@H](Cc1c[nH]c2ccccc12)NC(=O)[C@@H](NC(=O)[C@H](CCC(=O)O)NC(=O)[C@@H]1CCCN1C(=O)[C@H](CCCNC(=N)N)NC(C)=O)[C@@H](C)CC)C(C)C)C(=O)NCC(=O)N[C@@H](CC(=O)O)C(=O)N[C@@H](CCC(=O)O)C(=O)N[C@@H](Cc1ccccc1)C(=O)N[C@@H](CC(N)=O)C(=O)N[C@@H](C)C(=O)N[C@@H](Cc1ccc(O)cc1)C(=O)N[C@@H](Cc1ccc(O)cc1)C(=O)N[C@@H](C)C(=O)N[C@@H](CCCNC(=N)N)C(=O)N[C@@H](CCCNC(=N)N)C(=O)N[C@H](C(=O)N[C@@H](Cc1ccccc1)C(=O)N[C@@H](CC(C)C)C(=O)N[C@@H](CC(N)=O)C(N)=O)C(C)C,BCL2L1,"binding, flow cytometry",,pH 8,0.00018 µM
Cc1cc(CC(=O)N2C[C@H](O)C[C@H]2C(=O)NCc2ccccc2)on1,"von Hippel-Lindau disease tumor suppressor, with Elongin B/C (VHL, Homo sapiens, UniProt P40337)",isothermal titration calorimetry,,25 °C,600 ± 17 µM
Cc1ccc(Oc2nc3cc(-c4ccc5c(ccn5C)c4)c(Cl)cc3[nH]2)cc1C(=O)O,"PRKAB2/PRKAA1, gamma1; phosphorylated (Homo sapiens, UniProt O43741+Q13131)",biolayer interferometry,,AMPK complex α1β2γ1,0.51 µM
O=C(O)C1OC(OC2C(C(=O)O)OC(OC3C(C(=O)O)OC(OC4C(C(=O)O)OC(OC5C(C(=O)O)OC(O)C(O)C5O)C(O)C4O)C(O)C3O)C(O)C2O)C(O)C(O)C1O (stereo not drawn),"Beta-lactoglobulin (LGB, Bos taurus, UniProt P02754, A134V/G80D)",STD NMR titration,,"pH 2.65, 37 °C, together with: protein 20 µM",228 ± 30 µM
O=C(N[C@@H](Cn1cncn1)c1ccc(Cl)cc1Cl)c1ccc(-c2nnc(-c3ccccc3)o2)cc1,"Sterol 14-alpha demethylase (CYP51, Trypanosoma cruzi, UniProt Q7Z1V1)","binding, absorbance",,,0.15 µM
COc1c(F)c(F)c(C(=O)N[C@H]2[C@@H](O)[C@@H](CO)O[C@@H](OC)[C@@H]2O)c(F)c1F,LGALS3,"cell-free assay, FP",,,1300 µM
"CC(C)C[C@H](NC(=O)[C@H](Cc1ccc(O)cc1)NC(=O)[C@@H](CCCNC(=N)N)NC(=O)[C@@H](CO)NC(=O)[C@H](Cc1ccccc1)NC(=O)[C@H](CC1CCCCC1)NC(=O)[C@H](CC(=O)O)NC(=O)CN1CCCN2CCN(CCCN(CC(=O)O)CC2)CC1)C(=O)N[C@@H](Cc1c[nH]c2ccccc12)C(=O)N[C@@H](CO)C(=O)O (single isomer, unassigned)","Urokinase plasminogen activator surface receptor (Homo sapiens, UniProt Q03405)","binding, surface plasmon resonance",,,0.0077 µM
Cc1noc(NS(=O)(=O)c2ccc(NC(=O)c3ccnc(-c4cccc(Br)c4)c3)cc2)c1C,"Peptidyl-prolyl cis-trans isomerase A (PPIA, Homo sapiens, UniProt P62937)","binding, SPR",,pH 7.4,46 µM
COc1ccc2nc3cc(Cl)ccc3c(NCCCCNc3nc(N)nc(N)n3)c2c1,DNA duplex with (CCTG)2 step,"binding, ITC",,binding site 2,0.11 µM
CC#Cc1cc2c3c(c1)O[C@H](CO)[C@H](O)[C@@H]3OC2,"Galectin-4, C-terminal domain (LGALS4, Homo sapiens, UniProt P56470)","binding, competitive fluorescence polarization",,20 °C,1100 ± 22 µM
CC(C)C1=CC23CCC4C(C)(C(=O)O)CCCC4(C)C2CC1C(C(=O)O)C3C(=O)O (stereo not drawn),"Replication protein A 70 kDa DNA-binding subunit, DBD-F (RPA1, Homo sapiens, UniProt P27694)",fluorescence anisotropy competition,,25 °C,9 µM
O=[N+]([O-])c1cc(Br)cc([N+](=O)[O-])c1NS(=O)(=O)c1ccc(Br)cc1,"Abscisic acid receptor PYR1 (PYR1, Arabidopsis thaliana, UniProt O49686, R116A)",isothermal titration calorimetry,,outcome: no binding,no binding
CC[C@H](C)[C@H](NC(=O)[C@H](CCC(=O)O)NC(=O)[C@@H]1CCCN1C(=O)[C@H](CCCNC(=N)N)NC(C)=O)C(=O)N[C@@H](Cc1c[nH]c2ccccc12)C(=O)N[C@@H](CC(=O)O)C(=O)N[C@@H](C)C(=O)N[C@@H](CCC(N)=O)C(=O)N[C@@H](CCC(=O)O)C(=O)N[C@@H](CC(C)C)C(=O)N[C@@H](CCCCN)C(=O)N[C@@H](CCCNC(=N)N)C(=O)N[C@@H](Cc1ccccc1)C(=O)NCC(=O)N[C@@H](CC(=O)O)C(=O)N[C@@H](CCC(=O)O)C(=O)N[C@@H](Cc1ccccc1)C(=O)N[C@@H](CC(N)=O)C(=O)N[C@@H](C)C(=O)N[C@@H](Cc1ccc(O)cc1)C(=O)N[C@@H](Cc1ccc(O)cc1)C(=O)N[C@@H](C)C(=O)N[C@@H](CCCNC(=N)N)C(=O)N[C@@H](CCCNC(=N)N)C(=O)N[C@H](C(=O)N[C@@H](Cc1ccccc1)C(=O)N[C@@H](CC(C)C)C(=O)N[C@@H](CC(N)=O)C(N)=O)C(C)C,BCL2L1,competitive fluorescence polarization,,together with: fluorescein-labelled peptide 10 nM,0.013 µM
CN(C)c1ccc2c(-c3ccc(C(=O)NCCCC[C@@H](NC(=O)[C@@H](CCCNC(=N)N)NC(=O)[C@@H](CCCNC(=N)N)NC(=O)[C@@H](CCCNC(=N)N)NC(=O)[C@@H](CCCNC(=N)N)NC(=O)[C@@H](CCCNC(=N)N)NC(=O)[C@@H](CCCNC(=N)N)NC(=O)CCCCCNC(=O)[C@@H](CCCNC(=N)N)NC(=O)CCCCCNC(=O)c4ccc(-c5ccnc(N)n5)s4)C(N)=O)cc3C(=O)[O-])c3ccc(=[N+](C)C)cc-3oc2c1,"cGMP-dependent protein kinase 1, isoform alpha (PRKG1, Homo sapiens, UniProt Q13976)","binding, fluorescence anisotropy",,no cGMP and Mg2+,0.0127 µM
C=CCNC1=C2C[C@@H](C)C[C@H](OC)[C@H](O)[C@@H](C)[C@@H]3O[C@@]3(C)[C@H](OC(N)=O)[C@@H](OC)/C=C\C=C(/C)C(=O)NC(=CC1=O)C2=O,"Heat shock protein HSP 90-beta (HSP90AB1, Homo sapiens, UniProt P08238)","ligand displacement, FP",,,> 10 µM
O=P(O)(O)O[C@@H]1[C@@H](O)[C@H](O)[C@H](O)[C@H](O)[C@H]1OP(=O)(O)O,"Inositol 1,4,5-trisphosphate-gated calcium channel ITPR1, IP3-binding core (Itpr1, Rattus norvegicus, UniProt P29994, R568Q)","binding, 3H-IP3 competition",,IP3-binding core IBC^R568Q,1.08 µM
O=C(O)CCc1ccc(Cl)cc1Cl,"PIN8 (Arabidopsis thaliana, UniProt Q9LFP6)",cell-free assay,,,21 µM
O=C(Nc1cccc(C(=O)Nc2ccc(S(=O)(=O)O)c3cc(S(=O)(=O)O)cc(S(=O)(=O)O)c23)c1)Nc1cccc(C(=O)Nc2ccc(S(=O)(=O)O)c3cc(S(=O)(=O)O)cc(S(=O)(=O)O)c23)c1,"E3 ubiquitin-protein ligase XIAP, BIR1 domain (XIAP, Homo sapiens, UniProt P98170, D71A)",microscale thermophoresis,,,> 10000 µM
CCc1nc2cc3ccccc3cc2cc1C(=O)N1CCC[C@H]1C(=O)N[C@@H](CCC/C=C\CCC[C@H](NC(=O)[C@@H]1CCCN1C(=O)c1cc2cc3ccccc3cc2nc1CC)C(=O)N[C@@H](CCCCN)C(=O)NCCCN)C(=O)N[C@@H](CCCCN)C(=O)NCCCN,(CUG)10 RNA,"binding, fluorescence titration",,,0.0404 ± 0.0003 µM
COc1c(F)c(F)c(C(=O)N[C@H]2[C@@H](O)[C@@H](CO)O[C@@H](S[C@@H]3O[C@H](CO)[C@H](O)[C@H](NC(=O)c4c(F)c(F)c(OC)c(F)c4F)[C@H]3O)[C@@H]2O)c(F)c1F,"Galectin-3 (LGALS3, Homo sapiens, UniProt P17931, R144K)","cell-free assay, FP",,,1.3 µM
OC(Cc1cc(-c2ccc(C(O)C(F)(F)F)s2)sc1-c1ccc(-c2sc(-c3ccc(C(O)C(F)(F)F)s3)cc2CC(O)C(F)(F)F)s1)C(F)(F)F (stereo not drawn),"Microtubule-associated protein tau, 0N4R isoform, aggregated (MAPT, Homo sapiens, UniProt P10636)","binding, fluorescence",40% sucrose tau fraction,,0.59 ± 0.2 µM
COc1cccc(C(=O)N[C@H]2[C@@H](O)[C@@H](CO)O[C@@H](S[C@@H]3O[C@H](CO)[C@H](O)[C@H](NC(=O)c4cccc(OC)c4)[C@H]3OS(=O)(=O)O)[C@@H]2O)c1,LGALS3,"cell-free assay, FP",,,0.057 µM
CC(=O)N[C@@H]1[C@@H](O[C@@H]2O[C@H](C(=O)O)[C@@H](O[C@@H]3O[C@H](COS(=O)(=O)O)[C@@H](O)[C@H](O[C@@H]4O[C@H](C(=O)O)[C@@H](O)[C@H](O)[C@H]4O)[C@H]3NC(C)=O)[C@H](O)[C@H]2O)[C@H](O)[C@@H](COS(=O)(=O)O)O[C@H]1N=[N+]=[N-],"Sclerostin (SOST, Homo sapiens, UniProt Q9BQB4)","ligand displacement, FP",,,98.7 µM

# A few entries again:
SMILES,target,test,system,setting,Kd
O=P(O)(O)O[C@@H]1[C@@H](O)[C@H](O)[C@H](O)[C@H](O)[C@H]1OP(=O)(O)O,"Inositol 1,4,5-trisphosphate-gated calcium channel ITPR1, IP3-binding core (Itpr1, Rattus norvegicus, UniProt P29994, R568Q)","binding, 3H-IP3 competition",,IP3-binding core IBC^R568Q,1.08 µM
CC(C)C1=CC23CCC4C(C)(C(=O)O)CCCC4(C)C2CC1C(C(=O)O)C3C(=O)O (stereo not drawn),"Replication protein A 70 kDa DNA-binding subunit, DBD-F (RPA1, Homo sapiens, UniProt P27694)",fluorescence anisotropy competition,,25 °C,9 µM
O=[N+]([O-])c1cc(Br)cc([N+](=O)[O-])c1NS(=O)(=O)c1ccc(Br)cc1,"Abscisic acid receptor PYR1 (PYR1, Arabidopsis thaliana, UniProt O49686, R116A)",isothermal titration calorimetry,,outcome: no binding,no binding
